Measured values gathered from unrelated publications.
Values joined by “and” are separate records of one study, mostly repeats; a detail may differ. ± gives the spread as reported.
HIPK4: Homeodomain-interacting protein kinase 4 (HIPK4, Homo sapiens, UniProt Q8NE63)
Chain of UniProt A5GZW8 (whole entry, looked up): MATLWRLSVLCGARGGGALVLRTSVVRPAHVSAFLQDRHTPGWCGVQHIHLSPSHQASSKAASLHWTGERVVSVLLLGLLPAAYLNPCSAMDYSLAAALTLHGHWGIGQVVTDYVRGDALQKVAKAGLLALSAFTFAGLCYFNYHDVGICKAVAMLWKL
Chain of UniProt Q007T0 (whole entry, looked up): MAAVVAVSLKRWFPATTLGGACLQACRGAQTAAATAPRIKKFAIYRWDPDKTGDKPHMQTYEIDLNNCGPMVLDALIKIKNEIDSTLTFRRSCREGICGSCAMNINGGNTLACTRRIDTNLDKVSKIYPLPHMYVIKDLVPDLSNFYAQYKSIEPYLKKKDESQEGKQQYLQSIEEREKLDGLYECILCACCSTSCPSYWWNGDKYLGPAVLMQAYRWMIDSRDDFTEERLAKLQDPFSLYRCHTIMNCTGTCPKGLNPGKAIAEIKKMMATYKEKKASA
Chain of UniProt D0VWV4 (whole entry, looked up): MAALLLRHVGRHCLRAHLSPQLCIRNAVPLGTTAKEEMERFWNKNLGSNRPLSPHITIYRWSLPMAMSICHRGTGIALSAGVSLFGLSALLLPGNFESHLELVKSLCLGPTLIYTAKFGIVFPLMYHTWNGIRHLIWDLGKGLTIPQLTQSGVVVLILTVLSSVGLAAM
Chain of UniProt Q8NE63 (whole entry, looked up): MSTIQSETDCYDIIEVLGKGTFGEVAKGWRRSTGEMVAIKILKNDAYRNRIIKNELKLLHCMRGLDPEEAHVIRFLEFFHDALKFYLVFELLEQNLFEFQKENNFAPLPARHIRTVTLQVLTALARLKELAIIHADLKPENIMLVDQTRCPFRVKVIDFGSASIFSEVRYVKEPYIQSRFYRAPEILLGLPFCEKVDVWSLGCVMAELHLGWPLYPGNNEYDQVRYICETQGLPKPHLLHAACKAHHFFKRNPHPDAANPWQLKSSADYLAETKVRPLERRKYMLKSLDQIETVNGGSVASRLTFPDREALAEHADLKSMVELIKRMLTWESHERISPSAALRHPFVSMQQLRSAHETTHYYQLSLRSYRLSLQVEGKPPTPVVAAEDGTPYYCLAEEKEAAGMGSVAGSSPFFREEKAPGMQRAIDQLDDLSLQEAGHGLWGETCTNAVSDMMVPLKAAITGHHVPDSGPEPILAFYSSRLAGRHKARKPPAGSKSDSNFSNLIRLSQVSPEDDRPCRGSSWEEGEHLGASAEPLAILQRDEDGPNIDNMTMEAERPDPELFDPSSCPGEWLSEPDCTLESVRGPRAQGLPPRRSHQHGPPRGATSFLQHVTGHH
Chain of UniProt Q16539 (whole entry, looked up): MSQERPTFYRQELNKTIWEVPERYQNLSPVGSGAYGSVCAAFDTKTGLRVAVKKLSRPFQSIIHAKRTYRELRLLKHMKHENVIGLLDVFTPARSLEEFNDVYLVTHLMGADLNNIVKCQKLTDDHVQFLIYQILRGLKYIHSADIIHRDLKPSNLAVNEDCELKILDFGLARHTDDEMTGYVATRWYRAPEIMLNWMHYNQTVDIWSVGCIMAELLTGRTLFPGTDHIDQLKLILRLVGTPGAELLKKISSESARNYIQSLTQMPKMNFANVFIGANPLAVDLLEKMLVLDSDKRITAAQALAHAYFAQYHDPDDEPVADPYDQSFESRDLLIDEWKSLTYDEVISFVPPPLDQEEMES
Chain of UniProt Q86SQ6 (whole entry, looked up): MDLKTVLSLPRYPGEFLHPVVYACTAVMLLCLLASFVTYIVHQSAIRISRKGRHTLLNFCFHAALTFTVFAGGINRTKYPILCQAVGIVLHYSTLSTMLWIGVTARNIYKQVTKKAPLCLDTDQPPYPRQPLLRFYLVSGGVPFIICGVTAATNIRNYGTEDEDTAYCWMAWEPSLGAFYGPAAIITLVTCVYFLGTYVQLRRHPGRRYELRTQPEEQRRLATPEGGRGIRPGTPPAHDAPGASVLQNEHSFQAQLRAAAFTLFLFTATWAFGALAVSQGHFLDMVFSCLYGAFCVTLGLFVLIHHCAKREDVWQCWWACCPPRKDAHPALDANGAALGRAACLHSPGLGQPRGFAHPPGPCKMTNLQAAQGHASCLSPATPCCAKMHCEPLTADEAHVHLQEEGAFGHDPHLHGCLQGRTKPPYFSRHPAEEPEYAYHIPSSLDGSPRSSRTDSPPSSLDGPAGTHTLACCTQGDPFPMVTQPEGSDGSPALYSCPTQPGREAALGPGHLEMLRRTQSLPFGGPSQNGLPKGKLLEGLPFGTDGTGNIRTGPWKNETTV
Chain of UniProt P22756 (whole entry, unmodified, looked up): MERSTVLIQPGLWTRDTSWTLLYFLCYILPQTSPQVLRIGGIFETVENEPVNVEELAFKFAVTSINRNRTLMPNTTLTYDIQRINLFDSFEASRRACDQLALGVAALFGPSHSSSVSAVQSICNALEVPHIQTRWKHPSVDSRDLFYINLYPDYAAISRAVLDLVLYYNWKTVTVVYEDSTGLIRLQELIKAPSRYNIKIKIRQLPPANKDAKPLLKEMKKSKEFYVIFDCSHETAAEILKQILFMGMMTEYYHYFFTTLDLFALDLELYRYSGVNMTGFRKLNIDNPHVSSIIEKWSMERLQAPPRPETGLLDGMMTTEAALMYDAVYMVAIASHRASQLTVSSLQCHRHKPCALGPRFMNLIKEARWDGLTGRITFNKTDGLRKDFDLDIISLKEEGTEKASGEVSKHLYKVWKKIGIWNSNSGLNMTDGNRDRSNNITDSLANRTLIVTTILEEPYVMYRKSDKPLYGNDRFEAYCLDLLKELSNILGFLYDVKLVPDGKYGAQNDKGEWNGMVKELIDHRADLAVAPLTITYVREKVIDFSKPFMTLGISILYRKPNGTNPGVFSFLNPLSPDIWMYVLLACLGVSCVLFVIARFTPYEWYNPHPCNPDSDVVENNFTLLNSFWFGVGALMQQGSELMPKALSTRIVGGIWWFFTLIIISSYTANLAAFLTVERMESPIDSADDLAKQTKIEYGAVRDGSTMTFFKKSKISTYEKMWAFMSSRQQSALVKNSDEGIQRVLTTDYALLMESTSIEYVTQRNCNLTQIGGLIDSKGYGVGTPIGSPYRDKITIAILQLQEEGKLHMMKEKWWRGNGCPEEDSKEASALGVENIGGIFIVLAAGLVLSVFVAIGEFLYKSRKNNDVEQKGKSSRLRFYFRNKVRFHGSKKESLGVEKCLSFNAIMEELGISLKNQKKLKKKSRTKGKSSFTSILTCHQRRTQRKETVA
Chain of UniProt P00330 (whole entry, unmodified, looked up): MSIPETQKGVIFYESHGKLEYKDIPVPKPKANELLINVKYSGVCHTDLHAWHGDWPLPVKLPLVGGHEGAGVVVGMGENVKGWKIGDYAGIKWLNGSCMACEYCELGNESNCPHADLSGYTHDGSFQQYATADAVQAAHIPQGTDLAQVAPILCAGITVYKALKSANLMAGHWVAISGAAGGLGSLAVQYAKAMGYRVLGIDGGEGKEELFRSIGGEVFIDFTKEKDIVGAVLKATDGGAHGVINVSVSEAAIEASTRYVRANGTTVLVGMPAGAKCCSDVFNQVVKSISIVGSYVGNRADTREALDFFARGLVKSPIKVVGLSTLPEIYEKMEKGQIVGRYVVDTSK
Chain of UniProt Q0WP12 (whole entry, unmodified, looked up): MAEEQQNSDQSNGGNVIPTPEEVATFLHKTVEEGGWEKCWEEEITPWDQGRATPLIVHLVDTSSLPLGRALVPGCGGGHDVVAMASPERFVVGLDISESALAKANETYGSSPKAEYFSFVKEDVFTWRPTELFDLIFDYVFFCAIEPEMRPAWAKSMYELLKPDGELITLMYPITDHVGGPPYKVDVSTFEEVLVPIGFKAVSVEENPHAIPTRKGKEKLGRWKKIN
Chain of UniProt Q9H3N8 (whole entry, looked up): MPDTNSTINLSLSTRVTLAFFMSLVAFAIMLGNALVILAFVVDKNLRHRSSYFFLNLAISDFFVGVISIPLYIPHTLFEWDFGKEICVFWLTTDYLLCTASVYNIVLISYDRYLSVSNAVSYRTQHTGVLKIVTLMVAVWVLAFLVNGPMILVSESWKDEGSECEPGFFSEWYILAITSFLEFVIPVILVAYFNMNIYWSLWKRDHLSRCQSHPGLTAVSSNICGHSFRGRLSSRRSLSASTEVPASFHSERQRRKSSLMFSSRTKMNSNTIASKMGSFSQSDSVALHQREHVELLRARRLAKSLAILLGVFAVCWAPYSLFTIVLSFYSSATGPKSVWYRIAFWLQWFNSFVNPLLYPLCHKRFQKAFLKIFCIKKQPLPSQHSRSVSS
Chain of UniProt P07026 (whole entry, looked up): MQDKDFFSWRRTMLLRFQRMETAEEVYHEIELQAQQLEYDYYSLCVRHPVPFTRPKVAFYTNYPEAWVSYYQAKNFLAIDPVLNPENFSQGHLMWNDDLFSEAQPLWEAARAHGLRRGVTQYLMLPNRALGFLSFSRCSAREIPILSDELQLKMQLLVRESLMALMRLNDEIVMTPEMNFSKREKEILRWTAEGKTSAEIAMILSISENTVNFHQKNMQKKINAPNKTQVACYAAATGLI
Chain of UniProt P07148 (whole entry, looked up): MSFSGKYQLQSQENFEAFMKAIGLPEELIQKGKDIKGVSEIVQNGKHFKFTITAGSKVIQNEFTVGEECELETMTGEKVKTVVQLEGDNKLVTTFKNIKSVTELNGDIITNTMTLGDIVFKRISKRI
Chain of UniProt Q15743 (whole entry, looked up): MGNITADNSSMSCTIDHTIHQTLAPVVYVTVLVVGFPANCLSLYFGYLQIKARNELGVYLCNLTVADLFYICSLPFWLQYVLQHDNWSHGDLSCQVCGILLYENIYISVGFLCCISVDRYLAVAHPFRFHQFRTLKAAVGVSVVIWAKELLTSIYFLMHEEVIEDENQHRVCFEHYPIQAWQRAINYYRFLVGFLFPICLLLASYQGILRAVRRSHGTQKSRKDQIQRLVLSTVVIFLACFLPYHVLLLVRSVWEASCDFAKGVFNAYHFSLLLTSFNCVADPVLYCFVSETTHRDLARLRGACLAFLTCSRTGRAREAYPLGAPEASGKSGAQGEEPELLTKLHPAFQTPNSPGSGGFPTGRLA

CC[C@H](C)[C@@H]1NC(=O)[C@@H]2CCCN2C(=O)[C@H](CC(C)C)NC(=O)[C@H](CC(C)C)NC(=O)CNC(=O)[C@@H](NC(=O)[C@@H](NC(=O)[C@H](CC(=O)O)NC(=O)CNC(=O)[C@@H](NC(=O)[C@H](C)NC(=O)CNC(=O)[C@H](CCCCN)NC(=O)[C@H](CC(C)C)NC(=O)[C@H](CC(C)C)NC(=O)[C@H](CCCCN)NC(=O)CNC(=O)[C@@H](NC(=O)[C@@H](N)CC(C)C)C(C)C)C(C)C)C(C)C)CSSC[C@@H](C(=O)O)NC1=O — log2 fold change (RNA-seq, item: Pla1a; mouse, traumatic brain injury model, frontal cortex and hippocampus; dose not given; relative to: TBI alone): -1.37
CI — Km (HOL1 (Arabidopsis thaliana, UniProt Q0WP12, V140T); substrate, iodide release colorimetric; pH 7.5, sodium phosphate buffer, together with: 1 mM SAH): 4890 ± 950 µM
CCCCCCCCCCCC(=O)N[C@H]1CCOC1=O — Emax (Regulatory protein SdiA (sdiA, Escherichia coli, UniProt P07026)): 93.7%
Cc1oc(-c2cccc(Cl)c2)nc1CN1CCCC(C(=O)NCCc2ccc(Cl)cc2)C1 (stereo not shown) — maximum response (Vero-E6; CellTiter-Glo ATP; 72 h, retest 8-point duplicates; relative to: DMSO 0%, hyamine -100%, more negative, more toxic): -45.6%
COc1cc(F)cc2c(N3CCN(c4ccccc4OC(C)C)CC3)c(C#N)nnc12 — activity (GRM8 (Homo sapiens, UniProt O00222); positive allosteric modulator; concentration not given, together with: glutamate): inactive
C#CCCCCNC(=O)CI — reactivity ratio (ATP6V1A (Homo sapiens, UniProt P38606); mass spectrometry profiling; H460 cell lysate; 100 µM over 10 µM, UniProt P38606; relative to: high over low concentration): 0.924
CCC(C)c1cc([N+](=O)[O-])cc([N+](=O)[O-])c1O (stereo not shown) — binding fold change (FABP1 (Homo sapiens, UniProt P07148); affinity selection mass spectrometry; 100 nM, together with: pooled compounds; relative to: other proteins): 59.1
Cc1cn([C@H]2[C@H]([C@H](O)[C@H](O)CO)OC(C(=O)O)=C[C@@H]2O)nn1 — potency relative to DANA (Sialidase-1 (NEU1, Homo sapiens, UniProt Q99519); enzyme activity, inhibitor; relative to: DANA): 14 fold
O=C(Nc1cccnn1)N1CCC(=Cc2cccc(Oc3ccc(C(F)(F)F)cn3)c2)CC1 — inhibition of binding (HRH4 (Homo sapiens, UniProt Q9H3N8); radioligand binding; 50 µM, together with: [3H]histamine): 62%
O=C(O)COP(=O)(O)O — Ki ratio (Triosephosphate isomerase (TPI1, Gallus gallus, UniProt P00940, G210A/S211G/Y208T); enzyme activity, competitive inhibitor, GPDH/NADH-coupled; pH 4.9, 25 °C, ionic strength 0.1 NaCl, together with: glyceraldehyde 3-phosphate substrate; relative to: mutant over wild type): 1390
[O]=[Sb]([OH])([OH])[c]1ccccc1 — substrate conversion (Flap endonuclease 1 (Homo sapiens, UniProt P39748); gel radiotracer; 100 nM, 5 min, room temperature, together with: single-flap substrate 50 nM): 33%
Nc1ncc(-c2nc(N3CCOCC3)nc(N3CCOCC3)n2)c(C(F)F)n1 — remaining binding (central benzodiazepine site; radioligand binding, agonist ligand; 10 µM; relative to: control): 136%
COc1ccc(N2C(=O)N(c3c(C)cccc3Cl)Cc3cnc(Nc4ccc(C5CCN(C)CC5)cc4OC)nc32)nc1 — inhibition (HIPK4; kinase activity; 0.5 µM): 5%
Cc1ccc(CSc2ncnc3c2ccn3[C@@H]2O[C@H](CO)[C@@H](O)[C@H]2O)cc1 — survival (Toxoplasma gondii; [3H]uracil incorporation; human fibroblasts, adenosine kinase deficient; 5 µM): 100%
CC[C@@H](C)[C@@H](NC(=O)[C@@H](Cc1ccc(O)cc1)NC(=O)[C@H]1CCCN1C(=O)[C@@H](CCCNC(=N)N)NC(=O)[C@H](N)Cc1c[nH]cn1)C(=O)N[C@H](C)C(=O)N[C@H](Cc1c[nH]cn1)C(=O)N[C@H](CCCNC(=N)N)C(=O)N[C@H](CCCCNC(=O)c1cccc(S(=O)(=O)F)c1)C(=O)N[C@H](Cc1ccc(O)cc1)C(=O)N[C@H](CO)C(=O)N[C@H](Cc1ccccc1)C(N)=O — surface TFRC expression (Transferrin receptor protein 1 (Tfrc, Mus musculus, UniProt Q62351); flow cytometry; DC2.4; 2 h, pH 6, replicate 1, unit not given; relative to: 0 h): 0.897
Nc1ncnc2c1ncn2[C@@H]1O[C@H](COP(=O)(O)OP(=O)(O)OP(=O)(O)O)[C@@H](O)[C@H]1O — Km (axoneme-bound dynein; substrate; isolated axonemes): 41 ± 3 µM
CN(C(=O)n1cnc(-c2ccc[n+]([O-])c2)c1)C1CCCCC1 — inhibition (ghrelin receptor; concentration not given): -6% and 1%
O=C(c1ccc(Cl)cc1)N1CCN2C(=O)N(OC(=O)N3CCOc4ccccc43)C(=O)C2C1 (stereo not shown) — median protein ratio (LYPLAL1 (Homo sapiens, UniProt Q5VWZ2); MS-based ABPP; SW-620 conditioned medium; 10 µM, 1 h, 37 °C; relative to: compound over DMSO, lower = more inhibition): 1.04
CN1CCN(c2cc(-c3ccncc3)c(-c3ccc4ccccc4c3)nn2)CC1 — activation (GPR68 (Homo sapiens, UniProt Q15743); agonist, FLIPR; 12.5 µM): 9.8%
COc1cc(Nc2ncc(F)c(Nc3ccc4c(n3)NC(=O)C(C)(C)O4)n2)cc(OC)c1OC — inhibition (HIPK4; KINOMEscan; 10 µM): 80%
[2H]c1c([2H])c([C@]2([2H])CCCN2C(=O)C(C)(C)Oc2ccc3cn[nH]c3c2)c([2H])c([2H])c1C([2H])([2H])[2H] — remaining binding (MAPK14 (Homo sapiens, UniProt Q16539); KINOMEscan; 1 µM; relative to: DMSO control): 83%
NC(CC1(C(=O)O)CC2OC(CO)C(O)C(O)C2O1)C(=O)O (stereo not shown) — recovered plateau current amplitude (Glutamate receptor ionotropic, kainate 1 (Rattus norvegicus, UniProt P22756, del402-416); glutamate-evoked current, patch clamp; concentration not given, 30 s application): 70%
Oc1ccc2c3c1O[C@H]1[C@@H](O)CC[C@@]4(O)[C@@H](C2)N(CC2CCC2)CC[C@]314 — log2 fold change (Adhesion G protein-coupled receptor A1 (ADGRA1, Homo sapiens, UniProt Q86SQ6); β-arrestin recruitment, TANGO luminescence, item: GPR123; concentration not given; relative to: basal luminescence): 0.016
CC(=O)c1c(C)c2cnc(Nc3ccc(C4CCN(CCS(C)(=O)=O)CC4)cn3)nc2n(C2CCCC2)c1=O — MRT (human, plasma; oral, 25 mg once daily, day 1, single dose): 6.16 h
C[C@@H](O)[C@@H](CO)NC(=O)[C@@H](CCCNC(=N)N)NC(=O)[C@@H]1CCCN1C(=O)[C@@H]1CSSC[C@H](NC(=O)[C@H](Cc2ccccc2)NC(=O)CN2CCN(CC(=O)O)CCN(CC(=O)O)CCN(CC(=O)O)CC2)C(=O)N[C@@H](Cc2ccc(O)cc2)C(=O)N[C@@H](Cc2ccccc2)C(=O)N[C@@H](CCC(N)=O)C(=O)N[C@@H](CC(N)=O)C(=O)N1 [gallium-68 labelled] — tissue uptake (Wistar rat, liver; intravenous, 8 MBq, 60 min, group mean): 0.26 %ID/g
OC[C@H]1O[C@@H](n2ccc3c(SCc4ccc(F)cc4F)ncnc32)[C@H](O)[C@@H]1O — survival (Toxoplasma gondii; [3H]uracil incorporation; human fibroblasts, adenosine kinase deficient; 25 µM): 100%
O=C(NNC(=O)c1csnn1)c1ccc(Cl)cc1 — remaining activity (Acetyl-CoA synthetase (Cryptococcus neoformans, UniProt J9VFT1); 97.7 nM): 97.5%
CC[C@H](C)[C@H](NC(=O)[C@H](CCC(N)=O)NC(=O)[C@@H](NC(=O)[C@@H]1CCCN1C(=O)[C@@H](NC(=O)[C@H](CO)NC(=O)[C@H](Cc1ccccc1)NC(=O)[C@@H]1CCCN1C(=O)[C@H](CCC(N)=O)NC(=O)[C@@H](N)CCSC)[C@@H](C)CC)C(C)C)C(=O)N[C@H](C(=O)N[C@@H](CC(C)C)C(=O)N[C@@H](CCC(N)=O)C(=O)NCC(=O)N[C@@H](CO)C(=O)N[C@@H](CCCNC(=N)N)C(=O)N[C@@H](CCCNC(=N)N)C(=O)N[C@@H](CCCNC(=N)N)C(=O)N[C@@H](CCC(N)=O)C(=O)NCC(=O)N[C@@H](CCCNC(=N)N)C(N)=O)[C@@H](C)O — Hill coefficient (Kcnma1 (Mus musculus, UniProt Q08460); ion current, blocker, inside-out patch clamp; Xenopus oocytes; +100 mV, together with: 10 µM cytosolic Ca2+): 1.34
CCCN(CCC)CCNC(=O)c1cc(-c2ccc(Br)s2)nc2ccccc12 — maximum response (Vero-E6; CellTiter-Glo ATP; 72 h, retest 8-point duplicates; relative to: DMSO 0%, hyamine -100%, more negative, more toxic): -17.5%
CC(C)(COP(=O)(O)O)[C@@H](O)C(=O)NCCC(=O)NS(=O)(=O)OC[C@H]1O[C@@H](n2ccc(N)nc2=O)[C@H](O)[C@@H]1O — selectivity ratio (phosphopantothenoylcysteine synthetase; enzyme activity; relative to: IC50 human over bacterial): 20 to 740 fold
CN(CC(=O)O)C(=N)NP(=O)(O)O — kcat (CKMT1A (Homo sapiens, UniProt P12532, H99A); substrate, Kinase-Glo luminescence; pH 7.0, reverse reaction, H61A mutant, together with: second substrate in excess): 28 ± 2 s⁻¹
C[C@H]1CN(c2n[nH]c3nc(N[C@H]4CC[C@H](NS(=O)(=O)CCC(F)(F)F)CC4)ncc23)CCO1 — relative abundance (TLK2 (Homo sapiens, UniProt Q86UE8); inhibitor, Kinobeads competition profiling; 20 µM; relative to: vehicle): 1.15
CC[C@H](C)[C@H](NC(=O)[C@H](Cc1ccccc1)NC(=O)[C@H](CCC(=O)O)NC(=O)[C@H](CCCNC(=N)N)NC(=O)[C@H](C)NC(=O)[C@H](C)NC(=O)[C@H](CCC(N)=O)NC(=O)[C@H](CCC(=O)O)NC(=O)[C@H](CCC(=O)O)NC(=O)[C@H](CC(C)C)NC(=O)[C@H](Cc1ccc(O)cc1)NC(=O)[C@H](CO)NC(=O)[C@H](CO)NC(=O)[C@@H](NC(=O)[C@H](CC(=O)O)NC(=O)[C@H](CO)NC(=O)[C@@H](NC(=O)[C@H](Cc1ccccc1)NC(=O)[C@@H](NC(=O)CNC(=O)[C@H](CCC(=O)O)NC(=O)[C@H](C)NC(=O)CCc1c[nH]cn1)[C@@H](C)O)[C@@H](C)O)C(C)C)C(=O)N[C@@H](C)C(=O)N[C@@H](Cc1c[nH]c2ccccc12)C(=O)N[C@@H](CC(C)C)C(=O)N[C@H](C(=O)N[C@@H](CCCNC(=N)N)C(=O)NCC(=O)N[C@@H](CCCNC(=N)N)C(=O)N[C@@H](CCCCNC(=O)COCCOCCNC(=O)COCCOCCNC(=O)CC[C@H](NC(=O)CCCCCCCCCCCCCCCCC(=O)O)C(=O)O)C(=O)NCC(=O)NCC(=O)N[C@@H](CO)C(=O)N[C@@H](CCCCNc1c(NCCCCCN(O)C(=O)CCC(=O)NCCCCCN(O)C(=O)CCC(=O)NCCCCCN(O)C(C)=O)c(=O)c1=O)C(=O)O)C(C)C [zirconium-89 labelled] — tissue uptake (rat, intestine content; intravenous, 3 nmol/kg, 4 h): 0.27 %ID/g
O=C(O)CC(F)(F)C(=O)N1N=C(c2c(-c3ccc(Cl)cc3)c3ccccc3[nH]c2=O)C[C@H]1c1ccc(Cl)cc1 — potency reduction (rat GluN1a mutant NMDA receptor; TEVC; Xenopus oocytes; concentration not given; relative to: wild type): 8 fold
C=C(CN(C(=O)c1c(C(F)F)nn(C)c1F)C1CC1)c1ccc(Cl)cc1Cl — reaction velocity (SDHD/SDHC/SDHB (Sus scrofa, UniProt A5GZW8+D0VWV4+Q007T0); enzyme activity, inhibitor, DCIP reduction; pig; 0.2 µM, together with: DCIP 40 µM): 0.00875 µM/s and 0.00982 µM/s and 0.00986 µM/s
COc1cc2c(Oc3ccc4[nH]c(C)cc4c3F)ccnc2cc1OCC1(N)CC1 — gingival bleeding incidence (paediatric refractory sarcoma patients; 10 mg): 25%
NC(=O)c1ccc[n+]([C@@H]2O[C@H](COP(=O)([O-])OP(=O)(O)OC[C@H]3O[C@@H](n4cnc5c(N)ncnc54)[C@H](O)[C@@H]3O)[C@@H](O)[C@H]2O)c1 — Km (ADH1 (Saccharomyces cerevisiae, UniProt P00330, H49Q); enzyme activity, substrate; pH 7.3, 30 °C): 100 µM
